{"data": "Published values gathered from unrelated publications", "note": "Protocols differ between the studies behind these lines."}
{"Compound": "CC1(C)[C@H](NC(=O)/C(=N\\OCC(=O)N2CCC(C(=O)O)CC2)c2csc(N)n2)C(=O)N1OS(=O)(=O)O", "organism": "Enterobacter cloacae", "assay": "agar dilution", "system": "CDC 1000654", "MIC": "> 64 µg/mL"}
{"Compound": "COc1c(NC(=O)c2ccc(NC(=O)c3ccc(NC(=O)[C@H](CC#N)NC(=O)c4ccc(NC(=O)/C(C)=C/c5ccc(O)cc5)cc4)cc3)c(OC)c2O)ccc(C(=O)O)c1O", "organism": "Salmonella enterica", "assay": "microbial growth, broth dilution", "system": "TYPHIMURIUM", "MIC": "0.063 µg/mL"}
{"Compound": "Cc1c(CN(C)C(=O)/C=C/c2cnc3c(c2)CC(N)C(=O)N3)oc2ccccc12 (stereo not drawn)", "organism": "Enterobacter cloacae", "assay": "broth microdilution", "system": "BAA-2468", "MIC": "8 µg/mL"}
{"Compound": "COc1cc(C(=O)O)ccc1NC(=O)c1ccc(NC(=O)c2ccc(NC(=O)[C@H](Cc3c[nH]nn3)NC(=O)c3ccc(NC(=O)/C(C)=C/c4ccc(O)cc4)cc3)cc2)cc1O", "organism": "Enterococcus faecium", "assay": "broth microdilution", "system": "ciprofloxacin-resistant", "MIC": "32 µg/mL"}
{"Compound": "CN[C@H](CC(C)C)C(=O)N[C@H]1C(=O)N[C@@H](CC(N)=O)C(=O)N[C@H]2C(=O)N[C@H]3C(=O)N[C@H](C(=O)N[C@H](C(=O)O)c4cc(O)cc(O)c4-c4cc3ccc4O)[C@H](O)c3ccc(c(Cl)c3)Oc3cc2cc(c3O[C@@H]2O[C@H](CO)[C@@H](O)[C@H](O)[C@H]2O[C@H]2C[C@](C)(NCc3ccc(-c4ccc(Cl)cc4)cc3)[C@H](O)[C@H](C)O2)Oc2ccc(cc2Cl)[C@H]1O", "organism": "Enterococcus faecium", "system": "VanA VRE ATCC BAA-2317", "setting": "no LTA, together with: Mg2+ 100 µg/mL", "MIC": "2.5 µg/mL"}
{"Compound": "C#CCNC(=O)C(C)(C)O/N=C(\\C(=O)N[C@@H]1C(=O)N(S(=O)(=O)O)[C@H]1C)c1csc(N)n1", "organism": "Enterobacter cloacae", "assay": "agar dilution", "system": "ATCC 43560 susceptible", "MIC": "2 µg/mL"}
{"Compound": "CC[C@H](C)[C@@H]1NC(=O)[C@@H]([C@@H](C)O)NC(=O)CNC(=O)[C@H](CC(=O)O)NC(=O)CNC(=O)[C@H](CC(=O)O)NC(=O)CNC(=O)[C@H]2CCCCN2C(=O)[C@@H](NC(=O)[C@H](CC(=O)O)NC(=O)/C=C/CCCCCCCCCC(C)C)CNC(=O)[C@@H]2CCCN2C1=O", "organism": "Enterococcus", "assay": "broth microdilution", "system": "VRE 155, Mueller-Hinton broth, Mg2+ 10 mg/L", "setting": "16 h, together with: Ca2+ 5 mM", "MIC": "4 µg/mL"}
{"Compound": "COc1c(NC(=O)c2ccc(NC(=O)c3ccc(NC(=O)[C@H](Cc4c[nH]nn4)NC(=O)c4ccc(NC(=O)/C(C)=C/c5ccc(O)cc5)cc4)cc3)c(OC)c2O)ccc(C(=O)O)c1O", "organism": "Salmonella enterica", "assay": "microbial growth, broth dilution", "system": "TYPHIMURIUM", "MIC": "0.016 µg/mL"}
{"Compound": "CC1(C)[C@H](NC(=O)/C(=N\\OC2(C(=O)O)CCCC2)c2csc(N)n2)C(=O)N1OS(=O)(=O)O", "organism": "Enterobacter cloacae", "assay": "agar dilution", "system": "CDC 1000654", "MIC": "4 µg/mL"}
{"note": "For quick reference, copied from above:"}
{"Compound": "CN[C@H](CC(C)C)C(=O)N[C@H]1C(=O)N[C@@H](CC(N)=O)C(=O)N[C@H]2C(=O)N[C@H]3C(=O)N[C@H](C(=O)N[C@H](C(=O)O)c4cc(O)cc(O)c4-c4cc3ccc4O)[C@H](O)c3ccc(c(Cl)c3)Oc3cc2cc(c3O[C@@H]2O[C@H](CO)[C@@H](O)[C@H](O)[C@H]2O[C@H]2C[C@](C)(NCc3ccc(-c4ccc(Cl)cc4)cc3)[C@H](O)[C@H](C)O2)Oc2ccc(cc2Cl)[C@H]1O", "organism": "Enterococcus faecium", "system": "VanA VRE ATCC BAA-2317", "setting": "no LTA, together with: Mg2+ 100 µg/mL", "MIC": "2.5 µg/mL"}
